Results collected from several papers.
Compare with care: the assays were run in different laboratories.
Target: D(2) dopamine receptor (DRD2, Homo sapiens, UniProt P14416)
Sequence of UniProt P14416 (whole entry, looked up): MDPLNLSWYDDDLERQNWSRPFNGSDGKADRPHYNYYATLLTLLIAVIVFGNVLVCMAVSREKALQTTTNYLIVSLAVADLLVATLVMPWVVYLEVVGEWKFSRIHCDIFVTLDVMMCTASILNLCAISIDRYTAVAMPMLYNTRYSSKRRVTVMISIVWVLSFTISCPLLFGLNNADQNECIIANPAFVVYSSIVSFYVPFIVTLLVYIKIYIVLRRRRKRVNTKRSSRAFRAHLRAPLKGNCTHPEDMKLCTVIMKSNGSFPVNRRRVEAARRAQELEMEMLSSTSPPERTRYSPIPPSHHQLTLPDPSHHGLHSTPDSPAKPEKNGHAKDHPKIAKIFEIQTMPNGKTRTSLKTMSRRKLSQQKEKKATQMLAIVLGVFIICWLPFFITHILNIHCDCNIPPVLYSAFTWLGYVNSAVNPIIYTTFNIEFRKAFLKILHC

`C[C@@H](NC(=O)[C@@H](N)Cc1ccc(O)cc1)C(=O)NCC(=O)N[C@@H](Cc1ccccc1)C(=O)N(C)CCC[C@@]1(c2ccc(F)cc2)OCc2cc(C#N)ccc21` has an inhibition of under 50% (10 µM).
With `Nc1ncc(-c2nc(N3CCOCC3)nc(N3CCOCC3)n2)c(C(F)F)n1` the remaining binding was 118% (radioligand binding, agonist ligand; 10 µM).
With `Cn1cccc1-c1cccnc1` the inhibition was -11.8% (binding; 50 µM).
`CC(C)N1CCC[C@H]1CNC(=O)c1cn(C2CCCC2)c(=O)c2c1c1ccccc1n2C` gave an inhibition of 8% (radioligand binding; 10 µM).
`CC(C)CC(=O)OC[C@H]1O[C@@](C#N)(c2ccc3c(N)ncnn23)[C@H](O)[C@@H]1O` gave an inhibition of -2% (20 µM).
`CN1CCN(c2cc(-c3ccncc3)c(-c3ccc4ccccc4c3)nn2)CC1` has an inhibition of -2.2% (antagonist, FLIPR; 10 µM).
`CCN(CC)CCCC[C@H](NC(=O)[C@H](CC(C)C)NC(=O)[C@H](C)NC(=O)[C@H](Cc1ccccc1)NC(=O)c1ccc(C(C)(C)C)cc1)C(=O)N[C@@H](CO)C(=O)OC` has a specific binding of 60.5% (antagonist, radioligand binding; 10 µM; relative to: control binding).
For `COCc1c(-c2cc3cc(C)cc(OC)c3s2)c2c(N)ncnn2c1CN1CCNC(=O)C1`, the inhibition was 16% (binding, radioligand binding; 10 µM).
`O=c1ccc2ccccc2o1` has an inhibition of -7.44% (agonist radioligand binding; 10 µM, SafetyScreen44).
For `CCCC[C@@H](NC(=O)[C@@H](N)Cc1ccc(O)cc1)C(=O)NCC(=O)N[C@@H](Cc1ccc(F)cc1)C(=O)N(C)CCC[C@@]1(c2ccc(F)cc2)OCc2cc(C#N)ccc21`, the inhibition was under 50% (10 µM).
With `CN[C@]1(c2ccccc2Cl)CCCCC1=O` the inhibition was 7% (radioligand binding, antagonist, radioligand displacement; 30 µM, short isoform).

A few entries again:
`CCN(CC)CCCC[C@H](NC(=O)[C@H](CC(C)C)NC(=O)[C@H](C)NC(=O)[C@H](Cc1ccccc1)NC(=O)c1ccc(C(C)(C)C)cc1)C(=O)N[C@@H](CO)C(=O)OC` has a specific binding of 60.5% (antagonist, radioligand binding; 10 µM; relative to: control binding).
With `CN[C@]1(c2ccccc2Cl)CCCCC1=O` the inhibition was 7% (radioligand binding, antagonist, radioligand displacement; 30 µM, short isoform).
